Measurements pooled from the literature.
Protocols differ between the studies behind these lines. Numbers after ± are the reported error.

SMILES	test	system	setting	scale	quantity	result
N#Cc1ccc2c(c1)[C@H]1CCCN(C(=O)c3ccc4[nH]cnc4c3)[C@H]1C2	–	T2DM patients with overweight or obesity, urine	oral, 80 mg, day 1, 0-24 h, multiple dosing, adjusted geometric mean	reference: baseline day -1, -24-0 h	total urinary corticosteroid excretion	161%
CO[C@H]1CC[C@H](N2C(=O)CNc3ncc(-c4ccc(C(C)(C)O)nc4)nc32)CC1	flow cytometry	stimulated T cells, human, blood	45 mg single dose, 24 h, median	reference: baseline	p4EBP1 change from baseline	3.6%
O=C(O)CNC(=O)Cc1ccccc1	–	ventricular cardiomyocytes, C57BL/6 mouse	dose not given, 0.472 s	–	sarcomere length	1.68 µm
N#Cc1ccn2c(-c3ccncc3)c(-c3ccc(F)cc3)nc2c1	kinase binding, competitor, MIB/MS competition, refers to: SAK1	Candida albicans cell lysate	10 µM	reference: DMSO	log2 fold change	-0.0369
O=C(O)C(O)c1ccccc1 (racemic)	binding, MIDAS equilibrium dialysis LC-MS	A2AR-BRIL thermostabilized	concentration not given	reference: no-protein control	log2 fold change	0.0431
Cc1cc([C@H]2C[C@H]3[C@@H](CF)SC(N)=N[C@@]3(c3ccc(F)cc3F)CO2)on1	refers to: Aβx-40	wild-type mouse, brain	subcutaneous, 100 mg/kg, 9 h	–	brain Aβ40 level	2.24 ng/g
C[C@H](Oc1ccc(Br)cc1-c1ccon1)C(=O)O	first response peak	human, tibialis anterior muscle	800 mg, 30-15 Hz, SAD	–	difference from placebo	-0.641%
NC(=O)c1cnc2[nH]ccc2c1N[C@@H]1[C@@H]2CC3C[C@H]1C[C@@](O)(C3)C2	CD4+ central memory T cells, flow cytometry	Caucasian humans, peripheral blood	20 mg single dose	reference: baseline	percent change	-1.28%
Nc1ncnc2c1ncn2[C@@H]1O[C@H](COP(=O)(O)OP(=O)(O)OP(=O)(O)OC[C@@H]2O[C@H](n3cnc4c(N)ncnc43)[C@@H](O)[C@H]2O)[C@@H](O)[C@H]1O	binding, MIDAS equilibrium dialysis LC-MS	A2AR-BRIL thermostabilized	concentration not given	reference: no-protein control	log2 fold change	0.419
CC(C)NCC(O)c1ccc(O)c(O)c1 (stereo not drawn)	–	ventricular cardiomyocytes, C57BL/6 mouse	dose not given, 0.34 s	–	sarcomere length	1.72 µm
O=C(O)CCCCCCCCCCC(=O)O	binding, MIDAS equilibrium dialysis LC-MS	A2AR-BRIL thermostabilized	concentration not given	reference: no-protein control	log2 fold change	-0.36
C=CCn1c(=O)c2cnc(Nc3ccc(N4CCN(C)CC4)cc3)nc2n1-c1ccc2c(n1)[C@@](O)(CC)CC2	–	SW-403 xenograft, BALB/c nude mice	oral, 80 mg/kg once daily x 28, day 27	–	tumour volume difference	816 ± 49.7 mm3
Cc1ncc(CO)c(C=O)c1O	binding, MIDAS equilibrium dialysis LC-MS	A2AR-BRIL thermostabilized	concentration not given	reference: no-protein control	log2 fold change	0.08
OC(CCN1CCCCC1)(c1ccccc1)C1CC2C=CC1C2 (stereo not drawn)	resting-state EEG	healthy elderly humans	oral, 4 mg, eyes open, LS mean	–	EEG Beta2-power Pz-O2	0.9 µV²
OC[C@H]1O[C@H](OC[C@H]2O[C@H](OC[C@H]3O[C@H](O[C@]4(CO)O[C@H](CO)[C@@H](O)[C@@H]4O)[C@H](O)[C@@H](O)[C@@H]3O)[C@H](O)[C@@H](O)[C@H]2O)[C@H](O)[C@@H](O)[C@H]1O	binding, MIDAS equilibrium dialysis LC-MS	A2AR-BRIL thermostabilized	concentration not given	reference: no-protein control	log2 fold change	0.255
O=P(O)(O)C(Cl)(Cl)P(=O)(O)O	immunostaining	mouse, SAH model, meninges	dose not given, day 1	reference: total area	GFAP-positive area	7.13%
Nc1ncnc2c1ncn2C1CC(O)C(CO)O1 (stereo not drawn)	binding, MIDAS equilibrium dialysis LC-MS	A2AR-BRIL thermostabilized	concentration not given	reference: no-protein control	log2 fold change	0.0875
Cc1cc([C@H]2C[C@H]3[C@@H](C)SC(N)=N[C@@]3(c3ccc(F)cc3F)CO2)on1	refers to: Aβx-40	wild-type mouse, brain	subcutaneous, 50 mg/kg, 5 h	–	brain Aβ40 level	1.01 ng/g

Some of these lines once more:
SMILES	test	system	setting	scale	quantity	result
C[C@H](Oc1ccc(Br)cc1-c1ccon1)C(=O)O	first response peak	human, tibialis anterior muscle	800 mg, 30-15 Hz, SAD	–	difference from placebo	-0.641%
NC(=O)c1cnc2[nH]ccc2c1N[C@@H]1[C@@H]2CC3C[C@H]1C[C@@](O)(C3)C2	CD4+ central memory T cells, flow cytometry	Caucasian humans, peripheral blood	20 mg single dose	reference: baseline	percent change	-1.28%
